Assay results collected from several papers.
Numbered parts are unrelated; each lists some results of a single study.

Block 1 — method: universal PBM; molecule type: double-stranded DNA, one strand shown; sample: in vitro; tested at: not given; reading: higher = stronger binding
Target: Sal-like protein 4, full length isoform B (SALL4, Homo sapiens, UniProt Q9UJQ4-2, residues 1-616)
Setting: 8-mer, flanks averaged, mean of replicates
| Oligonucleotide | E-score |
| --- | --- |
| AGGCGCCC | -0.328 |
| AACAGTGC | 0.00505 |
| ACAAGGGG | -0.225 |
| AAGGATCG | 0.0919 |
| AGGTCCAA | -0.0456 |
| CCCATCAC | -0.0553 |
| CAAAAGCC | -0.0598 |
| AGACACTG | -0.103 |
| AGACCTCT | -0.114 |
| TATAATGA | 0.323 |
| ATTTTGTG | 0.287 |
| ACCATTAG | 0.154 |
| CCAGACTC | -0.169 |
| AGTGCACA | -0.132 |
| AAATCGGA | 0.00981 |
| GGCAGCAA | -0.161 |
| ATTTAGAG | 0.112 |
| CTGTACAC | 0.0517 |
| AAGCCACA | 0.0551 |
| AGTCGCAA | 0.0217 |
| CACGTTGC | -0.176 |
| ACCCGGGA | -0.292 |
| GGGGCATA | 0.0703 |
| CTAATGTC | 0.0238 |

Block 2 — method: aptamer microarray, sandwich; molecule type: DNA with 2'F-ANA; sample: in vitro; tested at: 200 nM; with: Cy3 exosite-II aptamer, 400 nM; reading: higher = stronger binding; oligonucleotide: GGTTGGTGTGGTTGG
Target: Prothrombin, mature alpha-thrombin (F2, Homo sapiens, UniProt P00734)
Setting: whole 15-mer aptamer, many near background
| Modification | mean fluorescence intensity [a.u.] |
| --- | --- |
| 2'F-ANA at 3 4 5 6 8 9 10 14 | 46.3 |
| 2'F-ANA at 1 4 5 6 8 10 11 14 | 47.4 |
| 2'F-ANA at 1 2 7 9 13 15 | 125 |
| 2'F-ANA at 1 3 5 8 9 11 12 | 183 |
| 2'F-ANA at 1 3 4 5 7 8 10 12 15 | 92 |
| 2'F-ANA at 2 4 5 6 8 9 11 14 15 | 50.3 |
| 2'F-ANA at 1 2 4 9 11 12 13 | 151 |
| 2'F-ANA at 1 3 5 6 7 9 11 12 13 14 15 | 448 |
| 2'F-ANA at 1 2 4 5 8 9 11 12 13 15 | 95.3 |
| 2'F-ANA at 4 8 10 13 14 | 63.7 |
| 2'F-ANA at 1 2 3 5 6 8 9 10 11 | 99.2 |
| 2'F-ANA at 1 2 4 5 6 7 9 10 14 | 50.3 |
| 2'F-ANA at 2 5 6 7 8 9 12 13 15 | 103 |
| 2'F-ANA at 2 3 4 5 7 9 13 15 | 63.6 |
| 2'F-ANA at 2 4 7 8 9 11 12 13 14 | 107 |
| 2'F-ANA at 1 2 3 7 11 12 14 | 84.7 |

Block 3 — method: RNA Bind-n-Seq; molecule type: RNA; sample: in vitro; tested at: not given; baseline: input RNA pool; reading: higher = stronger binding
Target: RING finger protein unkempt homolog, zinc fingers 1-6, GST-SBP tag (UNK, Homo sapiens, UniProt Q9C0B0, residues 30-357)
Setting: RNA with constant flanks, human and mouse sites, ends assumed
Constant ends, left off below: GGGAGUUCUACAGUCCGACGAUC … CAACAGAGGAUUGAGCAUCA
Construct (chain): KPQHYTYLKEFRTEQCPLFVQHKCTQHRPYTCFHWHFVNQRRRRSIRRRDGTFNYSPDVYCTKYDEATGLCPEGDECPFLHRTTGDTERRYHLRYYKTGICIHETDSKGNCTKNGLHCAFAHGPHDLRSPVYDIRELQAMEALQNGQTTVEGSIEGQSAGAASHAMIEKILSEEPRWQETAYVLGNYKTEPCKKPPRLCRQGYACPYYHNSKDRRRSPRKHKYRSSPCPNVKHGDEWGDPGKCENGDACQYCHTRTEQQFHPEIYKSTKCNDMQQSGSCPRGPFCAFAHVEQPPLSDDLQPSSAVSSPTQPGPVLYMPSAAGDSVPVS
| Oligonucleotide | bound/input enrichment [ratio] |
| --- | --- |
| CUCCACUCACAAGAAAUGCCCUUUAAUUUCUACUGUUUACAAACAAAGCUCUCCAGGUCUUAUUCUGUCUCUCAAGUGUACUGGACAAAACUGACCGUGGUUCCUCAAGCAAUGUUUGGU | 0.157 |
| CAGAAGAUCGAUGACCUCUUCUCCGGGAAGCUGUACCUCAUCGGCAUUGCUGCCAUCGUGGUCGCUGUGAUCAUGAUCUUCGAGAUGAUCCUGAGCAUGGUGCUGUGCUGUGGCAUCCGG | 0.055 |
| CUCUUCUUGAAUUCUACCGCAGGGACAAGUGGAGGAGCUUAUGAUCAUAGCUAUGUAGAGCUCUUUUUGAAUUCUACAGCAGGGGCAAGUGGUGGUGCUUACGGUAGCCAGAUGAUGGGA | 0.481 |
| ACAAACCAGACUUUUAUAUUUUAAUUUUACAGAUUUUACUACAUGAUUUUUCUAAAUUACUAUGUCAGGUUGUAAAAGUCAGUGCAAUAACAAACCUUCCUUUUUAAGAAGAAAAUUGUU | 0.542 |
| AUUUGUGAAGUAAUUAAUGAAGCAGUAUGGAAGCAUAAUAUAAUUUAUGUUUCAAGUGCUGGAAAUAAUGGUCCAUGCCUGUCUACAGUUGGUUGUCCAGGUGGAACUACAUCAAGUGUG | 0.172 |
| AGCCCGGGAUUUGAUUCCGAGCCUGUGACUACAUCACAGCCGUCUCUGUCUGUUCUCCCCACAGUUAAGAUCCUUCUGUUCUACGUGAUAUUUUAUGGCUGCCUGGCUGGCAUCUUCAUC | 0.0972 |
| UCGAACAAAAAUCUUUUCUGAAAGCAAAAAUACAUUAGACGAACUAAAAAAAGAAUACCAAGCAUUAGAAACCUCCGAGACAACCAAAGUCAAGACACAGUCAACCUGACUUCACAUAAC | 3.07 |
| UUUGACUCUGAUAUCAACAAUCGGCUGGUUUACCAUGACUUCUUCAGAGACCCUCUCAACUGGUCAAAAACUGAGGAGGCCUUUCCUGGGGGGCCGCUGGGAGCCUUGAGAGCCAUGUGC | 0.0989 |

Block 4 — method: RNA Bind-n-Seq; molecule type: RNA; sample: in vitro; tested at: 365 nM; baseline: no-protein control; reading: higher = stronger binding
Target: RNA binding protein fox-1 homolog 2, RRM domain, GST-SBP tag (RBFOX2, Homo sapiens, UniProt O43251-10, residues 100-194)
Setting: natural RNA segment, single round, ends assumed
Constant ends, left off below: GGGAGUUCUACAGUCCGACGAUC … UGGAAUUCUCGGGUGCCAA
Residues (chain): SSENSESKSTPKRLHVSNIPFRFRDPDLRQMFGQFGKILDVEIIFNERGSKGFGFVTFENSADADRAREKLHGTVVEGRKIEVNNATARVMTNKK
| Oligonucleotide | RBNS enrichment (R) |
| --- | --- |
| CCUCCAUCAGAUGCCUGGGCCUCCUCCAUCAGAUGUCUAGGCCUCCUCCAUCAGAUGCCUGGGCCUCCUCCAUCAGAUGCCUAGGCCUCCUCCAUCAGAUGUCUGGGCCU | 0.375 |
| CAAGCAUCUGAAACGUGCCAGCCUCUGCGGUUCCCGUUAUCAUCUUAGGGGGCAGAAGCCAAUGGGUGGAAAGAACAGUAGAGGUUCUGUAUAGCAUGGAAGUCAACUGC | 0.592 |
| UGACGUUCGAAUUGAUAGAAACGCUUAGCAGUUGCCUUUUUUAAACAUCGAUACGAGACCUCUGAAUUUGUAUUUUUUCUUGUUAACCAUUUUAAUUUGUUGGCUGGAUG | 0.926 |
| UCAGACACCAGCAACAGCCUCUUGGGAUGCCCUGAGUUGCUUCCCAUUUCCUCUUUCUAGCCGUCCUUUUCUAGUGUGUGCUCACUCUUCCUAGGAACUUUUAAGACUUC | 0.276 |
| UCCAUAAUUGUCUUUGGGGGAUUCCACCACACCCAAUGCUCUGGAGCCACAAGGAGUGUCCCUUCUUCCCCAGCAGAGCCGUGGGAGGGUCCUUGUCUGCUCUCCUUUGA | 0.482 |
| AUUAUAUAUUGUGGUUUCUGUUUCUUGAAAGAAUUUUUUUCGUUAUUUUUACAUCUAACAAAGUAAAAAAAUUAAAAAGAGGGUAAGAAACGAUUCCGGUGGGAUGAUUU | 0.46 |
| AAAGCCCUCCUGACAAGCCUUUUGCCUACAGGUUUACCUGAAAAUGAGCUACAUAUGGUCGUCAUUUUCUUCAAACUCUCAAAAUAGGAAAGUGGAAAUUUUUCUCCCCU | 0.33 |
| AAGGACCUCCAUUUGGAGAAUUGCAAGGAUUUUAUCCUGAAUUAUAGUGUUGGUGAGUUCAAGUCAUCACGCCAAGUGCUUGCCAUCCUGGUUGCUAUUCUAAGAAUAAU | 0.294 |

A few entries again (block 3):
| Oligonucleotide | bound/input enrichment [ratio] |
| --- | --- |
| CUCCACUCACAAGAAAUGCCCUUUAAUUUCUACUGUUUACAAACAAAGCUCUCCAGGUCUUAUUCUGUCUCUCAAGUGUACUGGACAAAACUGACCGUGGUUCCUCAAGCAAUGUUUGGU | 0.157 |
| CUCUUCUUGAAUUCUACCGCAGGGACAAGUGGAGGAGCUUAUGAUCAUAGCUAUGUAGAGCUCUUUUUGAAUUCUACAGCAGGGGCAAGUGGUGGUGCUUACGGUAGCCAGAUGAUGGGA | 0.481 |
| AUUUGUGAAGUAAUUAAUGAAGCAGUAUGGAAGCAUAAUAUAAUUUAUGUUUCAAGUGCUGGAAAUAAUGGUCCAUGCCUGUCUACAGUUGGUUGUCCAGGUGGAACUACAUCAAGUGUG | 0.172 |
| UCGAACAAAAAUCUUUUCUGAAAGCAAAAAUACAUUAGACGAACUAAAAAAAGAAUACCAAGCAUUAGAAACCUCCGAGACAACCAAAGUCAAGACACAGUCAACCUGACUUCACAUAAC | 3.07 |
| AGCCCGGGAUUUGAUUCCGAGCCUGUGACUACAUCACAGCCGUCUCUGUCUGUUCUCCCCACAGUUAAGAUCCUUCUGUUCUACGUGAUAUUUUAUGGCUGCCUGGCUGGCAUCUUCAUC | 0.0972 |
| UUUGACUCUGAUAUCAACAAUCGGCUGGUUUACCAUGACUUCUUCAGAGACCCUCUCAACUGGUCAAAAACUGAGGAGGCCUUUCCUGGGGGGCCGCUGGGAGCCUUGAGAGCCAUGUGC | 0.0989 |
| CAGAAGAUCGAUGACCUCUUCUCCGGGAAGCUGUACCUCAUCGGCAUUGCUGCCAUCGUGGUCGCUGUGAUCAUGAUCUUCGAGAUGAUCCUGAGCAUGGUGCUGUGCUGUGGCAUCCGG | 0.055 |
| ACAAACCAGACUUUUAUAUUUUAAUUUUACAGAUUUUACUACAUGAUUUUUCUAAAUUACUAUGUCAGGUUGUAAAAGUCAGUGCAAUAACAAACCUUCCUUUUUAAGAAGAAAAUUGUU | 0.542 |
